# Measured values gathered from unrelated publications.
# Numbered parts are unrelated; each lists some results of a single study. Changes are numbered by the printed parent chain.

# Set 1
# Target: CCNE2, cyclin fold, Cln2 fusion (human)
# Technique: yeast growth competition, sequencing
# Sample: yeast
# Setting: weak parent motif
# Reference: not given
# Reading: higher = stronger binding
# Starting sequence: PKMYT1 docking peptide (human); SFEPRNLLSLFED; partner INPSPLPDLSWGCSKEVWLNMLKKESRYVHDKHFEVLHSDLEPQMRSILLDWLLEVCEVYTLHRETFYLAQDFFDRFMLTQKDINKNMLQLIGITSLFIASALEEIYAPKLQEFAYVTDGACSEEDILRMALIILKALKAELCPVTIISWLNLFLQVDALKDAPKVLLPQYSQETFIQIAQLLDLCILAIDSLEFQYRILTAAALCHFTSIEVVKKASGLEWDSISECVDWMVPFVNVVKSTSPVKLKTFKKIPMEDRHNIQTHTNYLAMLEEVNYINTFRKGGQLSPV
Change,normalised enrichment score
SREPRNLLSLFED [F2R],-0.0225
SFEPRNLLSRFED [L10R],0.138
SFEPRNLLSLFER [D13R],0.198
SFEPLNLLSLFED [R5L],0.214
SYEPRNLLSLFED [F2Y],-0.24
SFEPRNLASLFED [L8A],0.439
SFEGRNLLSLFED [P4G],-0.17
SFEPRHLLSLFED [N6H],-0.164
SFEPQNLLSLFED [R5Q],0.174
SFEPRNLLSLFHD [E12H],0.154
SFEPRNELSLFED [L7E],-0.139
SFGPRNLLSLFED [E3G],-0.256
DFEPRNLLSLFED [S1D],1.06
SFEPRPLLSLFED [N6P],0.0408
YFEPRNLLSLFED [S1Y],-0.971
SFEPRNLLSYFED [L10Y],-0.078
SHEPRNLLSLFED [F2H],-0.488
SFEPRNLLSVFED [L10V],0.294
SFEPRNRLSLFED [L7R],-0.313
SFEPGNLLSLFED [R5G],0.0492
SFERRNLLSLFED [P4R],0.51
SFEPRRLLSLFED [N6R],0.281
SFLPRNLLSLFED [E3L],0.502
SFEPRNLLSLFVD [E12V],1.13

# Set 2
# Target: Fragile X messenger ribonucleoprotein 1, C-terminal low-complexity region (Fmr1, Mus musculus, UniProt P35922)
# Technique: RNA Bind-n-Seq
# Form: RNA
# Sample: in vitro
# Concentration: 200 nM
# Setting: whole 134-nt RNA, ends assumed
# With: 150 mM KCl
# Reference: input library
# Reading: higher = stronger binding
# Shared flanks, not repeated: GGGAGUUCUACAGUCCGACGAUC … UGGAAUUCUCGGGUGUCAAGG
Strand,log2 enrichment
UAACUUUAGACGAGGAUCUGAUGGAUAUGGCAGUGGACGUGGAUUUGGGGAUGGCUAUAAUGGGUAUGGAGGAGGACCUGGAGGUGGCAA,0.311
CAAGUCCUGUGCUACACAUCGUAUGUACCGAAUCGGGGUUUGGUUUGGGUUUGGGAAAGUAUUAUGUUACGCCGUUCGGAUCUGCACUUC,-0.00894
CUGUGCUACACAUCGUAUGUACCGAAUCGGGGUUUUUGGGGUUUUUUUGGGGAAAAAGGGGAAAGUAUUAUGUUACGCCGUUCGGAUCUG,-0.127
CAAGUCCUGUGCUACACAUCGUAUGUACCGAAUCGGGUUUGGGGUUUGGGUUUGGGAAAGUAUUAUGUUACGCCGUUCGGAUCUGCACUU,0.915
UUUUCAAAAUAAGGAGCUUCCCAGACCUGUGUUAGAAGGGCAGCAGUCAGAGAGGACCCCAAAUAAUCGCCCUGAUGCCCCUAAGGAGAA,-0.623
UAACUUUAGAGGAGGAUCUGAUGGAUAUGGCAGUGGACGUGGAUUUGGGGAUGGCUAUAAUGGAUAUGGAGGAGGACCUGGAGGUGGCAA,0.168
UGAAAAUGCUUUCAUGUUAAUUGUGUACACACAUUUCAUCUGUAUCCCUGUUUCUUUUCUCCCUACAGAAACAUAUGAGGAUUUUGAUAC,0.493
GUCCUGUGCUACACAUCGUAUGUACCGAAUCGGGGUUUGGGGAAAAAGGGGUUUGGGGAAAGUAUUAUGUUACGCCGUUCGGAUCUGCAC,0.789
UCAAGUCCUGUGCUACACAUCGUAUGUACCGAAUCGGUUUUUGGUUUGGAAAGGAAAGUAUUAUGUUACGCCGUUCGGAUCUGCACUUCC,-0.673
CACAGACAACACGCACGCACACAGACACAGAGGGAAGGGGUUGGGAUGGGGACAGGGUGCACAGCAGGGCGGGGUAGGACCCCAGCCCCU,1.06
CCUGUGCUACACAUCGUAUGUACCGAAUCGGCCCCCCGGGGCCCCCCGGGGCCCCCCGGGGAAAGUAUUAUGUUACGCCGUUCGGAUCUG,-0.992
AGUCCUGUGCUACACAUCGUAUGUACCGAAUCGGGUUUUUGGGUUUUUGGUUUUUGGGAAAGUAUUAUGUUACGCCGUUCGGAUCUGCAC,-0.541
UCCUGUGCUACACAUCGUAUGUACCGAAUCGGGGAAAAAAGGAAAAAAGGAAAAAAGGGAAAGUAUUAUGUUACGCCGUUCGGAUCUGCA,-0.237
UCCUCAAGUCCUGUGCUACACAUCGUAUGUACCGAAUCGGUGGAGGAAAGGAAAGUAUUAUGUUACGCCGUUCGGAUCUGCACUUCCAGC,-0.392

# Set 3
# Target: RNA binding protein fox-1 homolog 2, RRM domain, GST-SBP tag (RBFOX2, Homo sapiens, UniProt O43251-10, residues 100-194)
# Technique: RNA Bind-n-Seq
# Form: RNA
# Sample: in vitro
# Concentration: 365 nM
# Setting: natural RNA segment, single round, ends assumed
# Reference: no-protein control
# Reading: higher = stronger binding
# Shared flanks, not repeated: GGGAGUUCUACAGUCCGACGAUC … UGGAAUUCUCGGGUGCCAA
# Target sequence (chain): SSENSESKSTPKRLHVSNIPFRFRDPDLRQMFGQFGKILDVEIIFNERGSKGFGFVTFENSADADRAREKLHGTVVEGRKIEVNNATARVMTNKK
Strand,RBNS enrichment (R)
CUAGAGUUGAUACUGAUAAUAUAUUUUAAUUUUUAUUGAUGUUUAAUACCUUCUGAAACAGGAGGGUAAGAUCAGAUGGGAAGCCCCUCUGUUGAAGGAUCUUGGGAACC,0.294
UUUAAUGAAUUCACAUGAAAGGGGUAGUCUGAGUGACACAGUUCCCCACUCCGUACUGUAUUUUGCCAUUCUGCCGUAGCUAGAUGUUCUGUGGGGUUUGUUAACAUGGA,1.3
UUGGAGCAGUGUUUUGCAGAAUGAGCCAGAGUUCACCAAGCAGGCAAGGCAAGGAAGGGUGUUGCAGAGAGGGAACAGCAUAUGCAAAGGCGUAUCAGUUCAUGGCAUCA,0.647
AUCCUUCACUGUGGCCUUUUCAAGCUCAGCUGUUCCUGUUGUAUUUGAGACGAGGGUGAGGGAAUGUGGUGGCCACAAAAGAACAGGGACUUGCAGCACAAAUGUCACUU,1.02
UACAUUAGCUAAUACUAACCACAUAGAAUAUCAGACUUAGAUACGUGAAUAAGGAUCCUGUGGGCACUGCUGGGUCCACUCUGCAAAUGCCAAGACUAUCAAAGGAACGU,0.372
GAUGGAAAAUGCAUAUCACUUGACAGUUGACAAGAAAGUGUCAUUUUUGUGUUAGUGUAUCAUAUAAUUGAAUUUGAACAAGAUACAUAUUUUUCUGCAUACAAAUUUAU,1.28
UCCUUCCUUGCCCCCCUCUCUUUCUUCCCUCUUUCCCCUCCAGACAUUCUAGUUUGUGGAGGGUUAUUUAAAAAAACAAAAAAGGAAGAUGGUCAAGUUUGUAAAAUAUU,0.536
CUCACAUUGCAGACACCAUUUUGGGCUCCCUGAUUAAAUGCAGAUCAGUUCUGCACACCUCCAGGGGUGGAUCCAGCUGUAAGGCCAUACCUAUAUCUUCCAGAUGUCCU,0.302
CAAACACGGGCAUCCCGGGGAAAGCUGGGAGUUUGGUUCCUGGCACAUUGCAAUCACUUGAUUGUGAGUCCUUGGGAGCAAAUGCCUGAUGCUGUAUUUUCACAACUCUG,0.224
CUGGACAUAAAUGAGACUAUUGAAGGAAGUAACGUCCCACCGUCGUGAUGCUGUGUGAGAAGAUGGCUUUGCAGACCUCCUGCGCAGUCUCUUGCACUGUGUCCAUCACC,0.259
GGCAAAGUCUUGGGGUCGGGGGUGGGUUGGGGGCAGGGGACUACCCCAUCAGGCAGGCGCCAGUCCGCUGGGUCCCUGUCCAUCCUUUCCACCCCCAGUACCCCAGGUGU,0.284
CUCUGUGGACCCUCCCCCUCUCCCAACCUAGGCCUGUCUGGCAUGCUGCAAGGACCAGAGCCAGCCCCCAGGAGCCUCAGGGCCCACUUAGGAAGGAUGCCUUGUGCCUA,1.46

# Set 4
# Target: ABI1, truncated, D143A, DHFR fusion (Arabidopsis thaliana)
# Technique: DHFR PCA, deep sequencing
# Sample: yeast
# Setting: methotrexate growth selection, single substitutions
# With: (+)-ABA 58 µM
# Reference: wild-type fitted maximum
# Reading: higher = stronger binding
# Starting sequence: PYL1, truncated, DHFR fusion (Arabidopsis thaliana); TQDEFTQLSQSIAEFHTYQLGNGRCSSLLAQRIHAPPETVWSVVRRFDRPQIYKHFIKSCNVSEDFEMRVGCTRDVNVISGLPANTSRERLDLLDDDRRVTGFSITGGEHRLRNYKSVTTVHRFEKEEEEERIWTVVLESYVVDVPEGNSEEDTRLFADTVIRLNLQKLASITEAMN
Change,relative binding score
S140A,1.44%
S42A,89.3%
H122A,23.6%
L112Y,5.28%
R163E,53.1%
K58Y,72.1%
K126M,94.3%
T1M,89.5%
S27I,-4.61%
L93F,91.9%
R99S,45.1%
E152G,77.1%
I33N,-17.7%
F56P,-0.387%
F103E,0.428%
T120G,6.1%
M176N,81.9%
E151H,76.3%

# A few entries again (set 1):
Change,normalised enrichment score
SFEPGNLLSLFED [R5G],0.0492
SFEPRHLLSLFED [N6H],-0.164
SFEPRNLLSLFHD [E12H],0.154
SREPRNLLSLFED [F2R],-0.0225
SFERRNLLSLFED [P4R],0.51
SFEPRNRLSLFED [L7R],-0.313
SFGPRNLLSLFED [E3G],-0.256
